Assay results pooled from the literature.
Protocols differ between the studies behind these lines.
Cell line: MCF-10A

The IC50 of `Cc1cc(-c2ccccc2)c2ccc3c(-c4ccccc4)cc(C)[n+]4c3c2[n+]1[Re-2]4(=[C]=O)(=[C]=O)(=[C]=O)[O]C(=O)c1cccnc1` is reported as 6.38 µM (cell growth or viability, resazurin; 72 h).
`O=C(c1ccc2ccccc2c1)c1cn(-c2ccccc2)nc1C1=Nn2c(CCc3nnc4n3N=C(c3nn(-c5ccccc5)cc3C(=O)c3ccc5ccccc5c3)CS4)nnc2SC1` gave an IC50 of 41.2 µM (cell growth or viability, MTT; 48 h).
For `CCN(CC)c1ccc2c(c1)[O][Pd]([CH2]C#N)[N](C1CCCCC1)c1ncccc1N=C2`, the IC50 was over 100 µM (cell growth or viability, MTT; 48 h).
`Cc1cc(-c2ccccc2)c2ccc3c(-c4ccccc4)cc(C)[n+]4c3c2[n+]1[Re-2]4(=[C]=O)(=[C]=O)(=[C]=O)[O]S(=O)(=O)c1cccc2ccccc12` gave an IC50 of 2.51 µM (cell growth or viability, resazurin; 72 h).
For `COC(Cn1ccn(C)[c]1=[Ag][O]C(C)=O)c1ccccc1` (stereo not drawn), the IC50 was over 200 µM (cell growth or viability, MTT; 72 h).
The IC50 of `C#CCNC(=O)C(CC)C1CCC(C)C(C(C)C(O)C(C)C(=O)C(CC)C2OC3(C=CC(O)C4(CCC(C)(C5CCC(O)(CC)C(C)O5)O4)O3)C(C)CC2C)O1` (stereo not drawn) is reported as over 10 µM (viability, MTT; 96 h).
For `NS(=O)(=O)c1ccc(/N=N/c2ccc(O)c(/C=N/c3cccc(O)c3)c2)cc1`, the IC50 was 9.63 µM (cell growth or viability, MTT; 72 h).
The IC50 of `CCC(C(=O)O)C1CCC(C)C(C(C)C(O)C(C)C(=O)C(CC)C2OC3(C=CC(NCc4cn(Cc5ccccc5)nn4)C4(CCC(C)(C5CCC(O)(CC)C(C)O5)O4)O3)C(C)CC2C)O1` (stereo not drawn) is reported as 0.53 µM (cell growth or viability, resazurin; 72 h).
For `NS(=O)(=O)c1ccc(/N=N/c2ccc(O)c(/C=N/c3nccs3)c2)cc1`, the IC50 was 34.7 µM (cell growth or viability, MTT; 48 h).
For `COc1ccccc1/C=N/NC(=O)c1cc2cc(Nc3nccc(-c4cccnc4)n3)ccc2[nH]1`, the IC50 was over 50 µM (cell growth or viability, MTT; 48 h).
With `Cc1ccc(S(=O)(=O)[O][Re-2]2(=[C]=O)(=[C]=O)(=[C]=O)[n+]3c(C)cc(-c4ccccc4)c4ccc5c(-c6ccccc6)cc(C)[n+]2c5c43)cc1` the IC50 was 1.78 µM (cell growth or viability, resazurin; 72 h).
With `CCC(C(=O)O)C1CCC(C)C(C(C)C(O)C(C)C(=O)C(CC)C2OC3(C=CC(NCc4cn(CSc5ccccc5)nn4)C4(CCC(C)(C5CCC(O)(CC)C(C)O5)O4)O3)C(C)CC2C)O1` (stereo not drawn) the IC50 was 2.51 µM (cell growth or viability, resazurin; 72 h).
For `Cc1cc(=O)[nH]c2c(/N=N/c3ccccc3)c(O)c(/N=N/c3ccccc3)cc12`, the IC50 was 101 µg/mL (cell growth or viability, MTT).
The IC50 of `NS(=O)(=O)c1ccc(/N=N/c2ccc(O)c(C=O)c2)cc1` is reported as 18.7 µM (cell growth or viability, MTT; 48 h).
With `C=CC12COC(=O)C(=C)C1C1OC(=O)C(C)C1C(OC(=O)C(=C)CO)C2` (stereo not drawn) the IC50 was 2 µM (cell growth or viability, MTT; 72 h).
For `COc1cc(/C=N/NC(=O)c2cc3cc(Nc4nccc(-c5cccnc5)n4)ccc3[nH]2)cc(OC)c1`, the IC50 was over 50 µM (cell growth or viability, MTT; 48 h).
`Cc1ccc(S(=O)(=O)[O][Re-2]2(=[C]=O)(=[C]=O)(=[C]=O)[n+]3ccc(-c4ccccc4)c4ccc5c(-c6ccccc6)cc[n+]2c5c43)cc1` gave an IC50 of 3.46 µM (cell growth or viability, resazurin; 72 h).
The IC50 of `O=C(C[c-]1cccc1)Oc1ccc(-n2cccc2)cc1.[Fe+2].c1cc[cH-]c1` is reported as 288 µM (cell growth or viability, MTT).
The IC50 of `O=C(c1ccc2ccccc2c1)c1cn(-c2ccccc2)nc1C1=Nn2c(CCCCc3nnc4n3N=C(c3nn(-c5ccccc5)cc3C(=O)c3ccc5ccccc5c3)CS4)nnc2SC1` is reported as 31.4 µM (cell growth or viability, MTT; 48 h).
The IC50 of `NS(=O)(=O)c1ccc(/N=N/c2ccc(O)c(/C=N/c3cc(Cl)ccc3O)c2)cc1` is reported as 12.2 µM (cell growth or viability, MTT; 48 h).
With `COc1cc(C(=O)c2[nH]c(N)nc2-c2cccs2)cc(OC)c1OC` the IC50 was 1.89 µM (cell growth or viability, SRB).
`O=C1CCCC2=C1C(c1cccs1)c1c([nH]c(=S)[nH]c1=S)O2` (stereo not drawn) gave an IC50 of 57 µM (cell growth or viability, MTT; 72 h).
`NS(=O)(=O)c1ccc(/N=N/c2ccc(O)c(/C=N/c3cc([N+](=O)[O-])ccc3O)c2)cc1` has an IC50 of 4.42 µM (cell growth or viability, MTT; 72 h).
With `N#C[CH2][Pd]1[O]c2ccc(Br)cc2C=Nc2cccnc2[N]1C1CCCCC1` the IC50 was over 100 µM (cell growth or viability, MTT; 48 h).
For `NS(=O)(=O)c1ccc(/N=N/c2ccc(O)c(/C=N/CCc3c[nH]c4ccccc34)c2)cc1`, the IC50 was 10.5 µM (cell growth or viability, MTT; 48 h).
`C=C1C(=O)OC2C1CCC(=C)C1CC(OC(C)=O)C(=C)C12` (stereo not drawn) has an IC50 of 29.6 µM (cell growth or viability, MTT; 48 h).
`CCC(C(=O)O)C1CCC(C)C(C(C)C(O)C(C)C(=O)C(CC)C2OC3(C=CC(NCc4cn(CCCO)nn4)C4(CCC(C)(C5CCC(O)(CC)C(C)O5)O4)O3)C(C)CC2C)O1` (stereo not drawn) has an IC50 of over 12.5 µM (cell growth or viability, resazurin; 72 h).
`Cc1cnc2c(ccc3c(C)c(C)cnc32)c1C.O=C([O-])Cc1ccccc1Nc1c(Cl)cccc1Cl.O=C([O-])Cc1ccccc1Nc1c(Cl)cccc1Cl.[Mn+2]` has an IC50 of 36.7 µM (cell growth or viability; 3D culture).
The IC50 of `CCC(C(=O)O)C1CCC(C)C(C(C)C(O)C(C)C(=O)C(CC)C2OC3(C=CC(NCc4cn(COC(=O)C(C)(C)C)nn4)C4(CCC(C)(C5CCC(O)(CC)C(C)O5)O4)O3)C(C)CC2C)O1` (stereo not drawn) is reported as 6.06 µM (cell growth or viability, resazurin; 72 h).
For `Cc1cc(-c2ccccc2)c2ccc3c(-c4ccccc4)cc(C)[n+]4c3c2[n+]1[Re-2]4(=[C]=O)(=[C]=O)(=[C]=O)[O]C(=O)c1ccccn1`, the IC50 was 6.31 µM (cell growth or viability, resazurin; 72 h).
`CCN(CC)c1ccc2c(c1)[O][Pd]([CH2]C#N)[N](c1ccccc1C)c1ncccc1N=C2` gave an IC50 of over 100 µM (cell growth or viability, MTT; 48 h).
The IC50 of `NS(=O)(=O)c1ccc(/N=N/c2ccc(O)c(/C=N/c3ccccn3)c2)cc1` is reported as 48.7 µM (cell growth or viability, MTT; 72 h).
For `CC(C)Cc1ccc(C(C)C(=O)[O][Re-2]2(=[C]=O)(=[C]=O)(=[C]=O)[n+]3ccc(-c4ccccc4)c4ccc5c(-c6ccccc6)cc[n+]2c5c43)cc1` (racemic), the IC50 was 1.47 µM (cell growth or viability, resazurin; 72 h).

Excerpt of the above:
For `Cc1cc(=O)[nH]c2c(/N=N/c3ccccc3)c(O)c(/N=N/c3ccccc3)cc12`, the IC50 was 101 µg/mL (cell growth or viability, MTT).
The IC50 of `NS(=O)(=O)c1ccc(/N=N/c2ccc(O)c(C=O)c2)cc1` is reported as 18.7 µM (cell growth or viability, MTT; 48 h).
With `C=CC12COC(=O)C(=C)C1C1OC(=O)C(C)C1C(OC(=O)C(=C)CO)C2` (stereo not drawn) the IC50 was 2 µM (cell growth or viability, MTT; 72 h).
For `COc1cc(/C=N/NC(=O)c2cc3cc(Nc4nccc(-c5cccnc5)n4)ccc3[nH]2)cc(OC)c1`, the IC50 was over 50 µM (cell growth or viability, MTT; 48 h).
`Cc1ccc(S(=O)(=O)[O][Re-2]2(=[C]=O)(=[C]=O)(=[C]=O)[n+]3ccc(-c4ccccc4)c4ccc5c(-c6ccccc6)cc[n+]2c5c43)cc1` gave an IC50 of 3.46 µM (cell growth or viability, resazurin; 72 h).
